Measured values gathered from unrelated publications.
Numbers after ± are the reported error.

| SMILES | test | test system | conditions | tissue uptake |
| --- | --- | --- | --- | --- |
| CC[C@H](C)[C@H](NC(=O)[C@H](CCCNC(=N)N)NC(=O)[C@H](CCCCN)NC(=O)[C@H](Cc1ccc(O)cc1)NC(=O)[C@H](CC(=O)O)NC(=O)[C@H](C)NC(=O)CNC(=O)CCOCCOCCOCCNC(=O)CN1CCN(CC(=O)O)CCN(CC(=O)O)CCN(CC(=O)O)CC1)C(=O)N[C@H](C(=O)N[C@H](C(=O)N[C@@H](CCCCN)C(=O)N[C@H](C(=O)N[C@@H](CC(N)=O)C(N)=O)C(C)C)C(C)C)[C@@H](C)O [copper-64 labelled] | ex vivo gamma counting | C57BL/6J male mice, B16-F10 tumour, kidney | intravenous, 1.85 MBq, 5 min | 20.7 ± 2.76 %ID/g |
| CSCC[C@H](NC(=O)CNC(=O)[C@H](CCCCN)NC(=O)[C@H](CC(C)C)NC(=O)[C@@H]1CCCN1C(=O)[C@H](CO)NC(=O)[C@H](Cc1c[nH]cn1)NC(=O)[C@H](Cc1c[nH]c2ccccc12)NC(=O)[C@H](CCCNC(=N)N)NC(=O)[C@H](CC(C)C)NC(=O)[C@H](CCCNC(=N)N)NC(=O)[C@H](Cc1c[nH]c2ccccc12)NC(=O)[C@H](CS)NC(=O)CCCCCNC(=O)CN1CCN(CC(=O)O)CCN(CC(=O)O)CCN(CC(=O)O)CC1)C(=O)O [copper-64 labelled] | ex vivo biodistribution | BALB/c nude mice, bladder | intravenous, dose not given, 18 h, Huh-7 tumour-bearing | 1.25 %ID/g |
| CC[C@H](C)[C@H](NC(=O)[C@H](CCCCN)NC(=O)CNC(=O)[C@H](CC(C)C)NC(=O)[C@H](Cc1ccccc1)NC(=O)[C@H](CCCCN)NC(=O)[C@H](CO)NC(=O)[C@H](Cc1ccccc1)NC(=O)[C@H](Cc1c[nH]c2ccccc12)NC(=O)[C@H](CCC(N)=O)NC(=O)[C@@H](NC(=O)[C@H](Cc1ccccc1)NC(=O)CCCCCNC(=O)CN1CCN(CC(=O)O)CCN(CC(=O)O)CCN(CC(=O)O)CC1)C(C)C)C(=O)N[C@@H](CCC(=O)O)C(=O)N1CCC[C@H]1C(=O)N[C@@H](CC(=O)O)C(=O)N[C@H](C(=O)N[C@@H](CO)C(=O)N[C@@H](CCC(N)=O)C(=O)N[C@H](C(=O)N[C@@H](CCC(N)=O)C(=O)N[C@@H](CC(=O)O)C(=O)N1CCC[C@H]1C(=O)N[C@@H](CC(N)=O)C(=O)N[C@@H](CC(=O)O)C(=O)N[C@@H](CCC(N)=O)C(=O)N[C@@H](Cc1ccc(O)cc1)C(=O)N[C@@H](CCC(=O)O)C(=O)N1CCC[C@H]1C(=O)N[C@@H](Cc1ccccc1)C(=O)O)C(C)C)C(C)C [copper-64 labelled] |  | C57BL/6 mice, male, naive, skeletal muscle | 4 h | 0.66 ± 0.07 %ID/g |
| [2H]C([2H])([18F])[C@]([2H])(N)C(=O)O | PET | athymic nude mice, U-87 MG, tumor | dose not given, 15 min post-injection | 2.85 ± 0.39 %ID/cc |
| CCCC[C@H]1C(=O)N(C)[C@@H](CCCC)C(=O)N[C@@H](CCCNC(=O)CN2CCN(CC(=O)O)CCN(CC(=O)O)CCN(CC(=O)O)CC2)C(=O)N[C@H](C(=O)NCC(N)=O)CSCC(=O)N[C@@H](Cc2ccc(O)cc2)C(=O)N(C)[C@@H](C)C(=O)N[C@@H](CC(N)=O)C(=O)N2CCC[C@H]2C(=O)N[C@@H](Cc2c[nH]cn2)C(=O)N[C@@H](CC(C)C)C(=O)N(C)CC(=O)N[C@@H](Cc2c[nH]c3ccccc23)C(=O)N[C@@H](CO)C(=O)N[C@@H](Cc2c[nH]c3ccccc23)C(=O)N1C [gallium-68 labelled] |  | NOD/SCID mice, CHO-hPD-L1 xenograft, brain | 60 min, added: blocking agent 50 µg co-injected | 0.38 ± 0.07 %ID/g |
| CC(C)C[C@@H](NC(=O)[C@@H](CCCNC(=N)N)NC(=O)[C@@H](Cc1c[nH]cn1)NC(=O)[C@@H](Cc1c[nH]c2ccccc12)NC(=O)[C@@H](Cc1c[nH]cn1)NC(=O)[C@@H](Cc1ccccc1)NC(=O)[C@H](NC(=O)[C@@H](Cc1ccc(O)cc1)NC(=O)CNC(=O)CNC(=O)CCOCCOCCOCCNC(=O)CN1CCN(CC(=O)O)CCN(CC(=O)O)CC1)[C@H](C)O)C(=O)N[C@H](CC(N)=O)C(=O)N1CCC[C@@H]1C(=O)O [gallium-68 labelled] |  | C57BL/6 mice, male, brain | intravenous, 1.85 MBq, 60 min, added: GP12 blocking | 0.54 ± 0.17 %ID/g |
| CC[C@H](C)[C@H](NC(=O)[C@H](CCCNC(=N)N)NC(=O)[C@H](CCCCN)NC(=O)[C@H](Cc1ccc(O)cc1)NC(=O)[C@H](CC(=O)O)NC(=O)[C@H](C)NC(=O)CNC(=O)CCOCCOCCOCCNC(=O)CN1CCN(CC(=O)O)CCN(CC(=O)O)CCN(CC(=O)O)CC1)C(=O)N[C@H](C(=O)N[C@@H](CC(C)C)C(=O)N[C@@H](CCCCN)C(=O)N[C@H](C(=O)N[C@@H](CC(N)=O)C(N)=O)C(C)C)[C@@H](C)O [copper-64 labelled] | ex vivo gamma counting | C57BL/6J male mice, B16-F10 tumour, pancreas | intravenous, 1.85 MBq, 100 min | 0.43 ± 0.148 %ID/g |
| C[C@H](O)[C@@H](NC(=O)[C@H]1CCCN1C(=O)[C@@H](CCCCN)NC(=O)[C@@H](CO)NC(=O)[C@@H](Cc1ccc(O)cc1)NC(=O)[C@@H](CC(N)=O)NC(=O)CCOCCOCCOCCNC(=O)CN1CCN(CC(=O)O)CCN(CC(=O)O)CCN(CC(=O)O)CC1)C(=O)N[C@H](CC(=O)O)C(=O)N[C@H](CCCNC(=N)N)C(=O)N[C@H](CCC(N)=O)C(=O)N[C@H](Cc1ccc(O)cc1)C(=O)N[C@H](Cc1c[nH]cn1)C(=O)N[C@H](Cc1ccccc1)C(N)=O [copper-64 labelled] |  | C57BL/6J mice, liver | intravenous, 1.85 MBq, 1 h, radiolabelled | 1.29 ± 0.11 %ID/g |

Excerpt of the above:
| SMILES | test | test system | conditions | tissue uptake |
| --- | --- | --- | --- | --- |
| [2H]C([2H])([18F])[C@]([2H])(N)C(=O)O | PET | athymic nude mice, U-87 MG, tumor | dose not given, 15 min post-injection | 2.85 ± 0.39 %ID/cc |
